Measured values from different studies.
Each numbered part is a random draw from the data of one study; scales do not carry over between parts.

Set 1
Target: Ras GTPase-activating protein-binding protein 1, C-terminal RGG region (G3BP1, Homo sapiens, UniProt Q13283)
Sequence of UniProt Q13283 (whole entry, looked up): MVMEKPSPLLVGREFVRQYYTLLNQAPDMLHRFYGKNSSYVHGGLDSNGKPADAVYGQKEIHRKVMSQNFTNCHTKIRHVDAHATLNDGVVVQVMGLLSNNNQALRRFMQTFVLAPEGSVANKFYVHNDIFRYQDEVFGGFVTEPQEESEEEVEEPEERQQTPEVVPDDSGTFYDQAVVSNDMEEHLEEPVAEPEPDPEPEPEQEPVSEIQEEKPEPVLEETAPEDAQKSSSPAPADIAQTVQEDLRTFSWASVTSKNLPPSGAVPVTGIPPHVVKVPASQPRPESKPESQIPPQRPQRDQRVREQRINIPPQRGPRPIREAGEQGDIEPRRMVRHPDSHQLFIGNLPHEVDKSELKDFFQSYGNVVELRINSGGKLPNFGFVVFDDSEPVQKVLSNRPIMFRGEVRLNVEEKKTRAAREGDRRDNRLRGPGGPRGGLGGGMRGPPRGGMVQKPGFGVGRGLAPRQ
Method: RNA Bind-n-Seq
Molecule type: RNA
Matrix: in vitro
Concentration: 1 µM
Notes: whole 134-nt RNA, ends assumed
With: 150 mM KCl
Reference: input library
Direction: higher = stronger binding
Shared flanks, not repeated: GGGAGUUCUACAGUCCGACGAUC … UGGAAUUCUCGGGUGUCAAGG
Oligonucleotide	log2 enrichment
AAGUCCUGUGCUACACAUCGUAUGUACCGAAUCGGGGUUUUGGUUUUGGUUUUGGGGAAAGUAUUAUGUUACGCCGUUCGGAUCUGCACU	-1.4
GCAGGAAGUAAAAAGAAAUGGAAAUGCUUCGGAUAGUGGCAGGGGUGGGGGUUGCUAAGGAAAGGGUGGGAUGGGAGUGGGUAAAGAGUU	2.01
CUCAAGUCCUGUGCUACACAUCGUAUGUACCGAAUCGGGCCGGGGCCGGCCGGGAAAGUAUUAUGUUACGCCGUUCGGAUCUGCACUUCC	-1.11
GAUGAGACAGAUGCUUCAUCAGCAGUGAAAGUGAAAAGAGCAGUCCAGAAAACAUCCGAUUUAAUAGUGUUGGGUCUCCCAUGGAAAACA	-1.08
UGGGAGGUGGAUUUUGUUUAUUUUUUUAGCUCAUUUCCAGGGGUGGGAAUUUUUUUUUAACAUGUGUCAUGAAUAAAGUUGUUUUUGAAA	3.27
AAGUCCUGUGCUACACAUCGUAUGUACCGAAUCAAACCCAAAUUUAAAUUUUUAAAAAAGUAUUAUGUUACGCCGUUCGGAUCUGCACUU	-0.836

Set 2
Target: Interferon regulatory factor 5, full length, phosphomimetic (IRF5, Homo sapiens, UniProt Q13568-2, residues 1-514, K96S/S451D/S453D/S456D/S462D)
Method: protein-binding microarray
Molecule type: double-stranded DNA, one strand shown
Matrix: in vitro
Concentration: 250 nM
Notes: 60-bp whole probe
With: salmon DNA 0.4 mg/ml
Reference: random background probes
Direction: higher = stronger binding
Oligonucleotide	log fluorescence
GCCTAGCACTTAGATCTCAGGCTGGATTAGTGCTAGGTCTTGATTCGCTTGACGCTGCTG	-0.338 z-score
GCCTAGCACTTAAGTTTCGGACTGGGTTAGTGCTAGGTCTTGATTCGCTTGACGCTGCTG	7.57 z-score
GCCTAGCACTCATATTTAAGCTCCTATACTGTGCTAGTCTTGATTCGCTTGACGCTGCTG	0.398 z-score
GCCTAGCACTTAGGTATCGGTATCGGTTAGTGCTAGGTCTTGATTCGCTTGACGCTGCTG	9.84 z-score

Set 3
Target: Histone acetyltransferase KAT6A, winged helix 1, GST fusion (KAT6A, Homo sapiens, UniProt Q92794, residues 1-85)
Method: protein binding microarray
Molecule type: double-stranded DNA, one strand shown
Matrix: in vitro
Concentration: not given
Notes: 8-mer, flanks averaged, mean of 2 arrays, mostly near background
Reference: not given
Direction: higher = stronger binding
Residues (chain): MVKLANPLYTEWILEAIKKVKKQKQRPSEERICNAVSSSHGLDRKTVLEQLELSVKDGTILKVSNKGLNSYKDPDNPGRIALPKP
Oligonucleotide	E-score
ATTGGCAC	-0.355
GACAGGTA	-0.14
GGCGGCAC	0.377
CCATTTCG	-0.029
TATTCCCA	-0.152

Other studies, line by line
Molecule	target	test	system	conditions	scale	endpoint	result
PhoQ, residues 284 288 289 292 302 303 SMMNNA	PhoP, residues 12 14 15 18 19 HLGGL (Escherichia coli, UniProt P23836)	Sort-seq, refers to: YFP reporter	E. coli	PhoQ-PhoP variant library, with: 10 µM Mg2+	reference: high Mg2+ state, higher = stronger signaling	fold induction	0.593

Excerpt of the above (set 2):
Oligonucleotide	log fluorescence
GCCTAGCACTTAGATCTCAGGCTGGATTAGTGCTAGGTCTTGATTCGCTTGACGCTGCTG	-0.338 z-score
